Assay results pooled from the literature.
Each numbered part is a random draw from the data of one study; scales do not carry over between parts. Changes are numbered by the printed parent chain.

Study 1
Target: CCND1, cyclin fold, Cln2 fusion (human)
Technique: yeast growth competition, sequencing
Matrix: yeast
Setting: weak parent motif
Reference: not given
Reading: higher = stronger binding
Endpoint: normalised enrichment score
Starting sequence: PKMYT1 docking peptide (human); SFEPRNLLSLFED
SPEPRNLLSLFED [F2P]: 0.345
SNEPRNLLSLFED [F2N]: 0.0385
SFEPRNLLSLFQD [E12Q]: 0.721
SFEPRNLLSLFER [D13R]: 1.05
SFEPRNQLSLFED [L7Q]: 0.861
SFEPRNLLSLFEG [D13G]: 1.24
SFEPRMLLSLFED [N6M]: 0.414
SFEPRNLLSLFEH [D13H]: 0.435
SFEPRNILSLFED [L7I]: 1.07
SMEPRNLLSLFED [F2M]: 0.278
AFEPRNLLSLFED [S1A]: -0.0121
WFEPRNLLSLFED [S1W]: 0.277
SFEPRNLLSLFEL [D13L]: 1.43

Study 2
Target: RNA binding protein fox-1 homolog 2, RRM domain, GST-SBP tag (RBFOX2, Homo sapiens, UniProt O43251-10, residues 100-194)
Technique: RNA Bind-n-Seq
Molecule type: RNA
Matrix: in vitro
Tested at: 365 nM
Setting: natural RNA segment, single round, ends assumed
Reference: no-protein control
Reading: higher = stronger binding
Endpoint: RBNS enrichment (R)
Target sequence (chain): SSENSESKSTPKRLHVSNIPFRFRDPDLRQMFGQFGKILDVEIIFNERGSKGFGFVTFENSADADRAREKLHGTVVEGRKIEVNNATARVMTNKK
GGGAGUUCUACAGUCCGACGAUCUCUUAAGCAGGUGGGAGGCAGGGAAGGGUGCACCAGCGUGUCUUUCCCUGACUUUACAUGGUGUUUUGUUAAUGCAAAUCCGGGAAGCAGGUGUGAUUGCUUUUUGCUCGUGGAAUUCUCGGGUGCCAA: 0.75
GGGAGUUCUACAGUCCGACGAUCUUUUUUGUGUUAGGUGCUUUGGCUGAACUUGAUUCCAGCCCCCUUUUCCCUUUGGUGUUGUGUAUGUCUCUUCAUUUCCUCUCAAAUCUUCAACUCUUGCCCCAUGUCUCUGGAAUUCUCGGGUGCCAA: 1.2
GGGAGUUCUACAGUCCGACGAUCUCUAGAAACCAGCAGCUACUGGCUCAAAUUCAGGUUCUGGCGUCAAAUAGCGACAUUUCCAGUUUCUCUUAAAAACCGUGUUUGGUUUCAGUUGGGAUAGGCUUGUUUUGUGGAAUUCUCGGGUGCCAA: 0.328
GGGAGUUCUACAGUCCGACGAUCCCUCCUUUGGCUUGUGGGAUCCUUUUUCUCUAAUAUCUGUCUUUCUUUUUUUAGUUGAUCUUUCCACCCACUCCCCUUUCUCCUCUUCUCCACUGAGAAUAAUCUCCCUGUGGAAUUCUCGGGUGCCAA: 1.14
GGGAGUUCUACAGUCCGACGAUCUAAAGUGACAGUGUAUCUAACAGUUGUUAGAGAACUCCCCAUUUCUGUUCCCCUGUGCUGUGUAUGGUCUGUGUUCCUCUGGUUUGAUUCCCUCUGGCGGUGGGGGAGGGUGGAAUUCUCGGGUGCCAA: 3.65
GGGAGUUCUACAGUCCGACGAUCUUGGUAAGUAUUCCUUAGGUUUUUCUUUGAAAACCUGGGAUUGAGAGGUUGAUGAAUGGAAAUUCUUUCACUUCAUUAUAUGCAAGUUUUCAAUAAUUAGGUCUAAGUGGUGGAAUUCUCGGGUGCCAA: 0.593
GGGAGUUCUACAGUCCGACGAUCUUAAGAGUAUUAAAACUUAAAACCAUUUUUUGACUCUGAUUUUAAGUACAUUUUUAUAUGUCAGUUGCUGCCCUUCACACUACCAGGCCCUGCAGCCACAGUGUUCUGUUUGGAAUUCUCGGGUGCCAA: 0.319
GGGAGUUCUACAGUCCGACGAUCUGUCAACCCAGACAACUCAGUCCUUUCAUGUAAAUUUUUGGGCAAGAGAAGUCUGCUUUGACUGCCUUGCCUGACCAAAUUAAAUAAAUAGUUGCCAGAUCUCUACUUUUUGGAAUUCUCGGGUGCCAA: 0.277
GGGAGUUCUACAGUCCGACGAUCCCUAAUGUAUUAGUUUCCUUAUACGAGUUAUGCUUUUAGUACUGUAUCUCUCUCUGCUUAACUAAAGGUCACAAAGAUUUUCUCCUAUGUUUUGUUCUGGAAGUUUUAUAUGGAAUUCUCGGGUGCCAA: 0.782
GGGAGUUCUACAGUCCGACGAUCUGCUAGAAUCACUGCCGCUGUGCUUUCGUGGAAAUGACAGUUCCUUGUUUUUUUUGUUUCUGUUUUUGUUUUACAUUAGUCAUUGGACCACAGCCAUUCAGGAACUACCCUGGAAUUCUCGGGUGCCAA: 0.709
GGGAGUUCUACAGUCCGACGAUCGCCUUGCCUGACCUCCCACCCUAGUGGCCACCGGGAAGGCUGAAGGGAGUGGACACCACAGGAAGACACAGGUUGGAGCAAAACUUGAAUAAUGUCCUUUAUCCUGAUUUUGGAAUUCUCGGGUGCCAA: 0.548

Study 3
Target: Transcriptional repressor CTCF (CTCF, Homo sapiens, UniProt P49711, residues 1-727, full length assumed)
Technique: protein-binding microarray
Molecule type: double-stranded DNA, one strand shown
Matrix: in vitro
Tested at: not given
Setting: k-mer, scored over probes, only values ≥0.25
Reading: higher = stronger binding
Endpoint: E-score
Residues (chain): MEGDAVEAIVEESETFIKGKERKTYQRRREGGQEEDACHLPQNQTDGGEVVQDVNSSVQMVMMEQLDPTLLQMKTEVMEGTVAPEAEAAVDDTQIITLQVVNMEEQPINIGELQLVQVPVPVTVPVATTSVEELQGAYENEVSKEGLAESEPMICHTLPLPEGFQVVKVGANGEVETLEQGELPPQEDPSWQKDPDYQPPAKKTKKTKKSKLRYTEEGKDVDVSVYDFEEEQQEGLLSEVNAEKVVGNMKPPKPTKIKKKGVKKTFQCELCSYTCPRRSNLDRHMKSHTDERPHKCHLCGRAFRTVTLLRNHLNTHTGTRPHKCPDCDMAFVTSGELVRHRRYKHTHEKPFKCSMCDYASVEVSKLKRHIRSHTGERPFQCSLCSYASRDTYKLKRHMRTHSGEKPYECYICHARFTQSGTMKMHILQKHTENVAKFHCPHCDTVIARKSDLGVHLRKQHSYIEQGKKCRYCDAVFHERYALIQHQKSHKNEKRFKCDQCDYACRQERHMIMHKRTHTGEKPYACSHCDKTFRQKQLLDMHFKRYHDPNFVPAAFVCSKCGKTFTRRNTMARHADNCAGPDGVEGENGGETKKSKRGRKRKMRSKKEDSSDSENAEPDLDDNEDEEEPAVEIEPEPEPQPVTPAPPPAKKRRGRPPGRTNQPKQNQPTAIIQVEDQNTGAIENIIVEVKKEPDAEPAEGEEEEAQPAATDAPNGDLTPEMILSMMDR
ACAGAATA: 0.258
AATATTTA: 0.352
CGATATAA: 0.265
CGTATAAC: 0.275
GCAAAAAA: 0.271
CATTTTCC: 0.253
AACATGTG: 0.298

Other studies, line by line
PhoQ, residues 284 288 289 292 302 303 NSMLDC  fold induction (PhoP, residues 12 14 15 18 19 QWHVF (Escherichia coli, UniProt P23836); Sort-seq, refers to: YFP reporter; E. coli; PhoQ-PhoP variant library, with: 10 µM Mg2+; reference: high Mg2+ state, higher = stronger signaling): 7.34
